Published values from different studies.
Each line is one published result; not all experiments were run side by side.
Cell line: BV-2

SMILES | test | setting | quantity | result
O=C(O)c1ccc(O)cc1 | NO release, inhibitor, Griess | LPS-stimulated | IC50 | > 20 µM
COc1cc(/C=C/C(=O)c2ccccc2O)cc(OC)c1OC | nitric oxide production, Griess, measured: nitrite | 24 h, added: LPS 1 µg/mL | IC50 | 2.26 µM
COc1cc(O)c2c(c1)O[C@H](c1ccc(O)cc1)CC2=O | NO release, Griess | 24 h, added: LPS 10 µg/mL | IC50 | 87.1 µM
O=Cc1ccc(O)cc1 | NO release, inhibitor, Griess | LPS-stimulated | IC50 | > 20 µM
COc1cc(/C=C/C(=O)N2CCC(Cc3ccccc3)CC2)ccc1OC1CCCCC1 | NO release, inhibitor, Griess | 10 µM, LPS-stimulated | inhibition | 59.5%
COc1cc(O)c2c(=O)c(O)c(-c3ccc(O)c(O)c3)oc2c1 | TNF-alpha release, inhibitor, ELISA | 24 h, added: 10 µg/mL LPS + 10 µM MLA | Hill slope | -1
C#CCOc1ccc(/C=C/C(=O)N2CCc3ccccc3C2)cc1OC | NO release, inhibitor, Griess | 5 µM, LPS-stimulated | inhibition | 35.1%
COc1cc2c(ccc3cc(OC)c(O)c(OC)c32)cc1O | NO release, inhibitor, Griess | LPS-stimulated | IC50 | > 20 µM
COc1cc(/C=C/C(=O)N2CCc3ccccc3C2)ccc1OC1CCCCC1 | NO release, inhibitor, Griess | 10 µM, LPS-stimulated | inhibition | 64.1%
COc1cc(/C=C/C(=O)c2ccc(OC)c(OC)c2O)cc(OC)c1OC | NO release, inhibitor, Griess | 24 h, LPS-stimulated | IC50 | 1.1 µM
COc1ccc(/C=C/C(=O)N2CCc3ccccc3C2)cc1OC | NO release, inhibitor, Griess | 5 µM, LPS-stimulated | inhibition | 41.2%
O=C(O)c1ccc(CO)cc1 | NO release, inhibitor, Griess | LPS-stimulated | IC50 | > 20 µM
